Measurements of several laboratories.
Parts stem from different laboratories: compare values within a part only. Substitutions count along the parent as printed.

Block 1 — method: RNA Bind-n-Seq; form: RNA; medium: in vitro; tested at: 200 nM; setting: whole 134-nt RNA, ends assumed; with: 150 mM KCl; baseline: input library; reading: higher = stronger binding; measurement: log2 enrichment
Target: Fragile X messenger ribonucleoprotein 1, C-terminal low-complexity region (Fmr1, Mus musculus, UniProt P35922)
Constant ends, left off below: GGGAGUUCUACAGUCCGACGAUC … UGGAAUUCUCGGGUGUCAAGG
Oligonucleotide = GUCCUGUGCUACACAUCGUAUGUACCGAAUCGGGUUUGGGAAAAAAAGGGUUUUUGGGAAAGUAUUAUGUUACGCCGUUCGGAUCUGCAC; value = 0.0431
Oligonucleotide = CCUCAAGUCCUGUGCUACACAUCGUAUGUACCGAAUCGGGGUGGUGGGGUGGGAAAGUAUUAUGUUACGCCGUUCGGAUCUGCACUUCCA; value = 1.01
Oligonucleotide = GUCCUGUGCUACACAUCGUAUGUACCGAAUCGGGGAGGGGUUUUUGGGGUUUUUGGGGAAAGUAUUAUGUUACGCCGUUCGGAUCUGCAC; value = 0.699
Oligonucleotide = UGUGCUACACAUCGUAUGUACCGAAUCGGGGAAAAAAAGGGAAAAAAAGGGAAAAAAAGGGGAAAGUAUUAUGUUACGCCGUUCGGAUCU; value = -0.316
Oligonucleotide = UCAAGUCCUGUGCUACACAUCGUAUGUACCGAAUCGGGGCCGGGGCCGGGCCGGAAAGUAUUAUGUUACGCCGUUCGGAUCUGCACUUCC; value = -0.141
Oligonucleotide = CCUCAAGUCCUGUGCUACACAUCGUAUGUACCGAAUCGGCGGGCGGGGCGGGAAAGUAUUAUGUUACGCCGUUCGGAUCUGCACUUCCAG; value = 0.626
Oligonucleotide = AGUCCUGUGCUACACAUCGUAUGUACCGAAUCGGUUUUUUUGGUUUUUGGAAAAAGGAAAGUAUUAUGUUACGCCGUUCGGAUCUGCACU; value = -1.09
Oligonucleotide = UAACUUUAGAGGAGGAUCUGAUGGAUAUGGCAGUGGACGUGGAUUUGGGGAUGGCCAUAAUGGGUAUGGAGGAGGACCUGGAGGUGGCAA; value = 0.392

Block 2 — method: RNA Bind-n-Seq; form: RNA; medium: in vitro; tested at: 20 nM; setting: 6-mer, flanks averaged, single round; with: 150 mM KCl; baseline: input library; reading: higher = stronger binding; measurement: 6-mer enrichment (R)
Target: TAR DNA-binding protein 43, full length, His tag (TARDBP, Homo sapiens, UniProt Q13148, residues 1-414)
Oligonucleotide = GCCCCA; value = 0.7
Oligonucleotide = CAUCUU; value = 0.566
Oligonucleotide = AUGAAG; value = 0.975
Oligonucleotide = AAGCAC; value = 0.648
Oligonucleotide = AUACAC; value = 0.622
Oligonucleotide = UGGUCU; value = 0.705
Oligonucleotide = GCUUAG; value = 0.838
Oligonucleotide = GACAAG; value = 1.1

Other studies, line by line
OGT: UDP-N-acetylglucosamine--peptide N-acetylglucosaminyltransferase 110 kDa subunit (OGT, Homo sapiens, UniProt O15294)
UniProt O15294, sequence (whole entry, looked up): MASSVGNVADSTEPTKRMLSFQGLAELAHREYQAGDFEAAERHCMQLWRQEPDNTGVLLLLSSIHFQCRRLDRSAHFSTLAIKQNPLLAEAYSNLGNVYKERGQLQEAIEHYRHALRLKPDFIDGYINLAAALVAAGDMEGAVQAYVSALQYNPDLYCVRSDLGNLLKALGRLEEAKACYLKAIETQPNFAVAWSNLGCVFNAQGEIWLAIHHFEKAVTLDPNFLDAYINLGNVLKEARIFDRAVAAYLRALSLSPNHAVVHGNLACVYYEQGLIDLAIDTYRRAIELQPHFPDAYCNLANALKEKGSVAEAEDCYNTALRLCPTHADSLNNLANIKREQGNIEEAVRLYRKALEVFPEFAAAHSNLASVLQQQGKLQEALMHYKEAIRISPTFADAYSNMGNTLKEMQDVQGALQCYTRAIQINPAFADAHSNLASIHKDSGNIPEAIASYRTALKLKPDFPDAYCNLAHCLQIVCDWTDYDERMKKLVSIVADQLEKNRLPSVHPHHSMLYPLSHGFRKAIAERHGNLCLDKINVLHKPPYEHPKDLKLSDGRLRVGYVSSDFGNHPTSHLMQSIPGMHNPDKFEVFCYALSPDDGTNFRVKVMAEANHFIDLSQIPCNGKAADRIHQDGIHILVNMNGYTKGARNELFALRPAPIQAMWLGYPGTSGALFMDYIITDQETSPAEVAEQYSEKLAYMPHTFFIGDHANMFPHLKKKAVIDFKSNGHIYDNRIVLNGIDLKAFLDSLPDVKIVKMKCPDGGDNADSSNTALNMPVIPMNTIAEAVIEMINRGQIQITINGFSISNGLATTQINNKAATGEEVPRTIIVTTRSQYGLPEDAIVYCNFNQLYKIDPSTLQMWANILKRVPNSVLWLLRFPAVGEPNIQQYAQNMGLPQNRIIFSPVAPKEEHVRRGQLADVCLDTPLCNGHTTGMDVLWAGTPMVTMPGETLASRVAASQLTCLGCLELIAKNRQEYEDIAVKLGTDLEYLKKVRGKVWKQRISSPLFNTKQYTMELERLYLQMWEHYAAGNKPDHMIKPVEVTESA
P1: PafA, mature enzyme, eGFP fusion (Elizabethkingia meningoseptica, UniProt Q9KJX5); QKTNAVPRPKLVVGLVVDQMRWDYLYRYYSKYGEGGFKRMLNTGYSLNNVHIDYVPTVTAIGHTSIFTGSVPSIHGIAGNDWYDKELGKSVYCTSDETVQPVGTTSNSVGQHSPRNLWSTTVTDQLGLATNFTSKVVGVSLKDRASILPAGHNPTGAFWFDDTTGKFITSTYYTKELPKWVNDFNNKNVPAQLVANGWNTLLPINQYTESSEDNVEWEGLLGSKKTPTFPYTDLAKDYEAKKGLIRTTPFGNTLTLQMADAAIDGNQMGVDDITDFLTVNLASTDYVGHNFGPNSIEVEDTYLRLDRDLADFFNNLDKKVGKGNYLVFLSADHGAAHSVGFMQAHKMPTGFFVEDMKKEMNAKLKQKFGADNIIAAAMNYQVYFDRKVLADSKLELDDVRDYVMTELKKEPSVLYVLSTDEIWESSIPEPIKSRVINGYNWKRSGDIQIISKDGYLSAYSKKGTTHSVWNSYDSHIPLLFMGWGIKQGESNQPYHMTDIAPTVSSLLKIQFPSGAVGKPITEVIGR
Molecule = RELNPVYMIDYTMAV; target = OGT; test = phage display binding, phage display panning NGS; test system = peptide; how to read = baseline: OGT-panned over input library; measurement = log2 fold enrichment; value = 2.66
Molecule = P1 P149G; target = inorganic phosphate, free oxyanion; test = microfluidic competitive inhibition; test system = in vitro, cell-free expressed; conditions = not given, derived from inhibition constants, unchanged parent 615000 nM; how to read = lower = stronger binding; measurement = phosphate dissociation constant; value = 96.6 µM
Molecule = HTRWHSNRTHEQHHV; target = OGT; test = phage display binding, phage display panning NGS; test system = peptide; how to read = baseline: OGT-panned over input library; measurement = log2 fold enrichment; value = 3.28
Molecule = P1 K225G; target = inorganic phosphate, free oxyanion; test = microfluidic competitive inhibition; test system = in vitro, cell-free expressed; conditions = not given, derived from inhibition constants, unchanged parent 615000 nM; how to read = lower = stronger binding; measurement = phosphate dissociation constant; value = 620 µM

Repeated from above (block 1):
Oligonucleotide = GUCCUGUGCUACACAUCGUAUGUACCGAAUCGGGUUUGGGAAAAAAAGGGUUUUUGGGAAAGUAUUAUGUUACGCCGUUCGGAUCUGCAC; value = 0.0431
Oligonucleotide = AGUCCUGUGCUACACAUCGUAUGUACCGAAUCGGUUUUUUUGGUUUUUGGAAAAAGGAAAGUAUUAUGUUACGCCGUUCGGAUCUGCACU; value = -1.09
